Assay results of several laboratories.
Compare with care: the assays were run in different laboratories.
Technique: steady-state kinetics
B1: UGT1A9 (Homo sapiens, UniProt O60656); chain GKLLVVPMDGSHWFTMRSVVEKLILRGHEVVVVMPEVSWQLGRSLNCTVKTYSTSYTLEDLDREFKAFAHAQWKAQVRSIYSLLMGSYNDIFDLFFSNCRSLFKDKKLVEYLKESSFDAVFLDPFDNCGLIVAKYFSLPSVVFARGILCHYLEEGAQCPAPLSYVPRILLGFSDAMTFKERVRNHIMHLEEHLLCHRFFKNALEIASEILQTPVTEYDLYSHTSIWLLRTDFVLDYPKPVMPNMIFIGGINCHQGKPLPMEFEAYINASGEHGIVVFSLGSMVSEIPEKKAMAIADALGKIPQTVLWRYTGTRPSNLANNTILVKWLPQNDLLGHPMTRAFITHAGSHGVYESICNGVPMVMMPLFGDQMDNAKRMETKGAGVTLNVLEMTSEDLENALKAVINDKSYKENIMRLSSLHKDRPVEPLDLAVFWVEFVMRHKGAPHLRPAAHDLTWYQYHSLDVIGFLLAVVLTVAFITFKCCAYGYRKCLGKKGRVKKAHKSKTH
B2: FMO3 N61S (Homo sapiens, UniProt P31513); chain GKKVAIIGAGVSGLASIRSCLEEGLEPTCFEKSNDIGGLWKFSDHAEEGRASIYKSVFSSSSKEMMCFPDFPFPDDFPNFMHNSKIQEYIIAFAKEKNLLKYIQFKTFVSSVNKHPDFATTGQWDVTTERDGKKESAVFDAVMVCSGHHVYPNLPKESFPGLNHFKGKCFHSRDYKEPGVFNGKRVLVVGLGNSGCDIATELSRTAEQVMISSRSGSWVMSRVWDNGYPWDMLLVTRFGTFLKNNLPTAISDWLYVKQMNARFKHENYGLMPLNGVLRKEPVFNDELPASILCGIVSVKPNVKEFTETSAIFEDGTIFEGIDCVIFATGYSFAYPFLDESIIKSRNNEIILFKGVFPPLLEKSTIAVIGFVQSLGAAIPTVDLQSRWAAQVIKGTCTLPSMEDMMNDINEKMEKKRKWFGKSETIQTDYIVYMDELSSFIGAKPNIPWLFLTDPKLAMEVYFGPCSPYQFRLVGPGQWPGARNAILTQWDRSLKPMQTRVVGRLQKPCFFFHWLKLFAIPILLIAVFLVLT
B3: PP2A (Sulfolobus acidocaldarius, UniProt Q4JAD1); chain MNIEETYELLEKSKDIFRQQGPFIGEYKEDKVVFVGDTHGAINVTEYVFRKFYDNVDLIVFLGDYVDREPQTGVENLSLILKKLIESDENKGKTKIVVLRGNHESPLTNFHYGFFEELKIKTEDAENAYEKFRDLFSYMPYSVLVNGYLCMHGGLPATLEGDRLGITTVEDIAKLKYPDINPDDPVGLQILWNDPRDGLLDIDFLPSIRGEGIYYFGERVTNEFLSYNNFKGIIRGHEAVDGFRTNMNGKVITVFSSVYHGQRSGILYHDYNNNKFVRIYIKMVNDQLIEEIV
B4: enzyme (Brachypodium distachyon, UniProt I1HY48); chain MGSIASEERTVTGWAARDADGHLSPYTYTLRKTGPEDVLVKVLYCGICHTDIHQAKNHLGASKYPMVPGHEVVGEVVEVGGEVSKYSAGDVVGVGVIVGCCRECRPCKASVEQYCNKRIWSYNDVYTDGRPTQGGFSSAMVVDQKFVVRIPAGLAPEQAAPLLCAGVTVYSPLKHFGLMSPGLRGGILGLGGVGHMGVKVAKSMGHHVTVISSSGKKRAEAMDDLGADAYLVSSDADQMAAAADSLDYVIDTVPVKHPLEPYLSLLKMDGKLVLMGVIGEPLSFVSPMVMLGRKSITGSFIGSMEETEEVLKFCVEKGLTSQIEVVKMDYLNEALERLERNDVRYRFVVDVAGSKIEDAA
B5: SLCO1B1 (Homo sapiens, UniProt Q9Y6L6); chain MDQNQHLNKTAEAQPSENKKTRYCNGLKMFLAALSLSFIAKTLGAIIMKSSIIHIERRFEISSSLVGFIDGSFEIGNLLVIVFVSYFGSKLHRPKLIGIGCFIMGIGGVLTALPHFFMGYYRYSKETNINSSENSTSTLSTCLINQILSLNRASPEIVGKGCLKESGSYMWIYVFMGNMLRGIGETPIVPLGLSYIDDFAKEGHSSLYLGILNAIAMIGPIIGFTLGSLFSKMYVDIGYVDLSTIRITPTDSRWVGAWWLNFLVSGLFSIISSIPFFFLPQTPNKPQKERKASLSLHVLETNDEKDQTANLTNQGKNITKNVTGFFQSFKSILTNPLYVMFVLLTLLQVSSYIGAFTYVFKYVEQQYGQPSSKANILLGVITIPIFASGMFLGGYIIKKFKLNTVGIAKFSCFTAVMSLSFYLLYFFILCENKSVAGLTMTYDGNNPVTSHRDVPLSYCNSDCNCDESQWEPVCGNNGITYISPCLAGCKSSSGNKKPIVFYNCSCLEVTGLQNRNYSAHLGECPRDDACTRKFYFFVAIQVLNLFFSALGGTSHVMLIVKIVQPELKSLALGFHSMVIRALGGILAPIYFGALIDTTCIKWSTNNCGTRGSCRTYNSTSFSRVYLGLSSMLRVSSLVLYIILIYAMKKKYQEKDINASENGSVMDEANLESLNKNKHFVPSAGADSETHC
B6: protein (UniProt A0A4Y6I1F8); chain MGSEVVSKKHEFGALEVEGIDFRASVAALGSTKKLVLGGAGFRGLEINGNLVKFTAIGIYVEEAIIPHLSPKLGGKTVEELCANELLFEEVLSAPFDKLIRVVFLLPLTGPQYSEKVVERIGLLPNPGLKEESIKQFLEIFKAENFPPRTSLVCSFTEDGLKIAFMKGPDFPEESDAVIEDKYFARAFLATIIAKDGVSPMAKLSFAERVSKYL
B7: enzyme D382A (Arabidopsis thaliana, UniProt O82390); chain MNARALLCSSNIHSLYTSNRPPEKTSSSRSLRNLKPSPKSLRVWIYPRNRSSVFRVLVRSSDKSESSNSYYVEGDKVSGNNDVVSDSPSSIVLPWWEEFPKRWVIVLLCFSAFLLCNMDRVNMSIAILPMSAEYGWNPATVGLIQSSFFWGYLLTQIAGGIWADTVGGKRVLGFGVIWWSIATILTPVAAKLGLPYLLVVRAFMGVGEGVAMPAMNNILSKWVPVQERSRSLALVYSGMYLGSVTGLAFSPFLIHQFGWPSVFYSFGSLGTVWLTLWLTKAESSPLEDPTLLPEERKLIADNCASKEPVKSIPWRLILSKPPVWALISCHFCHNWGTFILLTWMPTYYHQVLKFNLMESGLLSVFPWMTMAISANAGGWIAATLVSRGFSVTNVRKIMQTIGFLGPAFFLTQLKHIDSPTMAVLCMACSQGTDAFSQSGLYSNHQDIAPRYSGVLLGLSNTAGVLAGVLGTAATGHILQHGSWDDVFTISVGLYLVGTVIWNLFSTGEKIID
B8: FPPS (Aedes aegypti, UniProt Q17F78); chain MLSTLIRAGSLQTMGRQFARSVETPVQMQHARFISKSSEVNSDYMTMRENQTQKVSRDYNSKLQVRLKKVSRTLSTLNNSIPEAASQTIVTKSDAREFMAVFPDLVRDLTEYCKKYDNTLAPKWFVKALQYNVPQGKKNRGLAAVLAYRMLSKSEDLTPENIRRAHYLGWVIEMFQAVFLICDDAMDGSQTRRGQPCWYKLEDVKLSGINDALMIDAAIFYVLKKQFGDEPYYSKLVETFNEIKFITTIGQSLDLRSARMDVTKYTMDLYKSIVCHKTAYYTFYLPVALAMHMTGFTDPEVFRQTKTILLEIGLFYQTQDDFLDCFGDPAVTGKIGTDIEEGKCTWLSVVAMQRASDEQKELMKQCYGSSDPEKVARVKKLYEELGLPTTYAIYEEESYNMIKTHIQQISRGLPHELFFKIMEKIYRRDC
B9: protein (Danio rerio, UniProt A0A8M1P203); chain MAQEECKMISDKLLKYKETVLTLEPSYDITPEYIDSIQDFETRDDDVFVVTFPKSGTVWTQRIITLIYEEDFPEKAKQITFEQMPWIEYRKKGKDYSTRPSPRLFCSHLLEPLMPKTLKRKGKVIYVMRNPKDVMVSYFHFSKKMKNLDSAKSYDEVLENFLTGCMVGGSWFDHVKGWVTSKDKYNILILTYEEMIKDLRSVIVKICEFVGKNLSDAAIDKVVERATFKQMKVDPVANYESLPVDITDQPKGAFMRKGTVGDWRNSLTMAQSECVDGALEERMKDVPLNLVWDITELRG
B10: HCT R356E (Coleus scutellarioides, UniProt E8ZAP2); chain MKIHVRDSTLVRPSAATPAVSLWNSNVDLVVPNFHTPSVYFYRPSGADNFFDTAVMKAALGRALVSFYPMAGRLKRDEDGRVEIDCNAEGVLFVEAESDGTVDDYGDFAPSLELRRLIPAVDYSQGISAYPLLVLQVTFFKCGGVSLGVGMQHHAADGFSGLHFINTWSDMARGLDITLPPFIDRTLLSARDPPQPQFKHVEYQPPPAMKTYEPAETVVSIFKLTKDQLTTLKAKSKEDGNTTTYSSYEMLSGHVWRCTCLARGLPEEQETKLYIATDGRSRLQPQLPPGYFGNVIFTATPLAVAGDLGSKPVWYAASKIHDALARMDNDYLRSALDFLELQPDLKALVRGAHTFECPNLGITSWVRLPIHDADFGWGRPIFMGPGGIAYEGLSFVLPSPTNDGSLSVAISLQAEHMKLFEKLLYQI
B11: protein (Rheum palmatum, UniProt A0A7L9A2S6); chain MKKTELVFLPAPAPGHLVSTVEFSKRLIARDARLTVTILVISSPFSRGAQTNPSPGIRYVTLPQVDVPQHLMKDSIEHTISVYIASHAPHVRDAVAALQTESTVHVAGLFLDMFCTPMIDVANELGLPSYVFFCSSAGFLGLLLHLPVHSQPRFDETGLDVLIPSFQNPVPTRVLPRFGFNELGYKSFMDHAKRFGETKGIIINTYAELEPYALKSLLDAYDTAPVYAVGPVLDLRSQVHMPCDAAERARIMGWLDKQPDSSVVFLCFGSGGSFSEHQIREISKGLSQSGQRFLWSVRKPPTGGLVKPTEYTETELRSVLGDEFWSLLDEGERGVVCGWAPQVEVLGHKSVGAFVSHCGWNSTLESLWFGKPMVTWPLYAEQQMNAFELVKELGIAVELTLDYRLHSSEVVEAREVERAVRRVMDENNPVRYKVKEMAEVCRATLVEGGSSFVCVDRLISGFLGEIN
Sequence of UniProt P05177 (whole entry, looked up): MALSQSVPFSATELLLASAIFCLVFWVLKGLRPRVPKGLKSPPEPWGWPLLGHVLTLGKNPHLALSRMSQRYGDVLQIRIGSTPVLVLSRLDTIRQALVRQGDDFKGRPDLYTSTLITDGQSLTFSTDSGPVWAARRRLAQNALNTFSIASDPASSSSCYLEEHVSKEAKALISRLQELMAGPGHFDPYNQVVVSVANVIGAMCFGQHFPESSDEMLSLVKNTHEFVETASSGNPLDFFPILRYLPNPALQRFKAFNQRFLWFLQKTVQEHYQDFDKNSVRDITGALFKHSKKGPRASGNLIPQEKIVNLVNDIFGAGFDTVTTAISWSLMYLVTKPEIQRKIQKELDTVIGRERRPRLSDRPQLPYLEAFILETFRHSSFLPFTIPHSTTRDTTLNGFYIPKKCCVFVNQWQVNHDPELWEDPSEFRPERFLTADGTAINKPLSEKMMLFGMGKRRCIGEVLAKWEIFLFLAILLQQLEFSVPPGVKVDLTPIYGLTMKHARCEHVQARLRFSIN
Sequence of UniProt Q3SY77 (whole entry, looked up): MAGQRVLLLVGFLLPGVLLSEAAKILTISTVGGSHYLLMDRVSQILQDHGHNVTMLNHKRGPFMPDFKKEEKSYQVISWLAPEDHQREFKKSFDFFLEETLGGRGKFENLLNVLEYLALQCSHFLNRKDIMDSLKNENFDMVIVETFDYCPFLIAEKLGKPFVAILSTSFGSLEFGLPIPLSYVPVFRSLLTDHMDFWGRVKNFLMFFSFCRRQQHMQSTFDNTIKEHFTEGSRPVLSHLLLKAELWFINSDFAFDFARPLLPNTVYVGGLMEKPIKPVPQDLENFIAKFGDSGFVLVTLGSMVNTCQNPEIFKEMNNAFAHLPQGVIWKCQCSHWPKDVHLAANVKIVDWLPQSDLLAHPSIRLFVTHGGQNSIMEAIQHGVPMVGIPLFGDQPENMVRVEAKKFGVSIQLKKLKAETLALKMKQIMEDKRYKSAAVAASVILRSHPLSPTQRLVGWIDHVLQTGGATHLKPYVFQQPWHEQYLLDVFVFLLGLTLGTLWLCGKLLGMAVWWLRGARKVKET
Sequence of UniProt H6U1I8 (whole entry, looked up): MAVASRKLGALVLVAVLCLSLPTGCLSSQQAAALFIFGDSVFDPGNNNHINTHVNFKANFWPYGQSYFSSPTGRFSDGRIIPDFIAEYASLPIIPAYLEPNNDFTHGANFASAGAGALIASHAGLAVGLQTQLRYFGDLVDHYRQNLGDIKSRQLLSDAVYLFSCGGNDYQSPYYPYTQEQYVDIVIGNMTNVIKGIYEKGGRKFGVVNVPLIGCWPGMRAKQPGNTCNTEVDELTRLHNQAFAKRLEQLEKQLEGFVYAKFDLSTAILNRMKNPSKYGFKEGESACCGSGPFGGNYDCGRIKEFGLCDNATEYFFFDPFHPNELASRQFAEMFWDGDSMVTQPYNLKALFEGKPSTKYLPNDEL

B1 (UGT1A9) — Vmax (COc1cccc(-c2cc(=O)c3ccc(O)cc3o2)c1; pH 7.4, 37 °C): 0.000132 µmol/min/mg
B2 (FMO3 N61S) — Vmax (CN1CCC[C@H]1c1cccnc1; HEK293 microsomes; 37 °C, not purified, together with: NADPH regenerating system): 1.82e-05 µmol/min/mg
UGT3A2 (Homo sapiens, UniProt Q3SY77) — Vmax (O=c1ccn([C@@H]2O[C@H](CO[P@@](=O)(O)O[P@@](=O)(O)O[C@H]3O[C@H](CO)[C@@H](O)[C@H](O)[C@H]3O)[C@@H](O)[C@H]2O)c(=O)[nH]1; pH 7.4, 37 °C, not purified, together with: 1-OH-pyrene 16 µM, MgCl2 10 mM, alamethicin): 0.000997 µmol/min/mg
B3 (PP2A) — Vmax (O=[N+]([O-])c1ccc(OP(=O)(O)O)cc1; pH 6.5, 70 °C, cooperative, together with: Mn2+ 5 mM): 4.3 µmol/min/mg
enzyme (Candida albicans, UniProt A0A1D8PHX1) — Vmax (CCCCCCCCCCCCCCCCCC(=O)SCCNC(=O)CCNC(=O)[C@H](O)C(C)(C)COP(=O)(O)OP(=O)(O)OC[C@H]1O[C@@H](n2cnc3c(N)ncnc32)[C@H](O)[C@@H]1OP(=O)(O)O; pH 7.4, 37 °C, apparent, not purified): 0.004 µmol/min/mg
Gcs (Leishmania donovani, UniProt Q67BG3) — Vmax (N[C@@H](CCC(=O)O)C(=O)O; apparent, together with: ATP, L-cysteine, Mg2+): 108 µM/min/mg
speG (Vibrio cholerae, UniProt Q9KL03) — Vmax (NCCCCNCCCN; pH 9, 37 °C): 76.2 µmol/min/mg
B4 (enzyme) — Vmax (NC(=O)C1=CN([C@@H]2O[C@H](COP(=O)(O)OP(=O)(O)OC[C@H]3O[C@@H](n4cnc5c(N)ncnc54)[C@H](OP(=O)(O)O)[C@@H]3O)[C@@H](O)[C@H]2O)C=CC1; pH 6.25, 23 °C, cofactor varied): 29.2 µmol/min/mg
B5 (SLCO1B1) — Vmax (COc1cc2c(cc1OC)[C@@H]1Cc3ccc(OC)c(OC)c3CN1CC2; pH 7.4, 37 °C, not purified): 0.000209 µmol/min/mg
B6 (protein) — Vmax (O=C(/C=C/c1ccc(O)cc1)c1ccc(O)cc1O): 0.514 µmol/min/mg
B7 (enzyme D382A) — Vmax (O=P(O)(O)O; pH 6.5, 25 °C, apparent, not purified): 0.0026 µmol/min/mg
B8 (FPPS) — Vmax (CC(C)=CCC/C(C)=C/COP(=O)(O)OP(=O)(O)O; pH 7.5, 37 °C, together with: IPP 100 µM, Mg2+ 5 mM): 71.8 µmol/min/mg
B9 (protein) — Vmax (C[C@H](CCCC(CO)CO)[C@H]1CC[C@H]2[C@@H]3[C@H](O)C[C@H]4C[C@H](O)CC[C@]4(C)[C@H]3C[C@H](O)[C@]12C; pH 7, 28 °C, substrate inhibition, together with: PAPS 14 µM): 0.00959 µmol/min/mg
CYP1A2 (Homo sapiens, UniProt P05177) — Vmax (COc1cc2c(cc1CC=C(C)C)C(=O)C[C@@H](c1ccc(O)cc1)O2; pH 7.4, 37 °C): 0.000122 µmol/min/mg
B10 (HCT R356E) — Vmax (NCc1ccc(O)c(O)c1; pH 8, pseudo-first-order, together with: p-coumaroyl CoA): 8.55 µmol/min/mg
enzyme (Tanacetum cinerariifolium, UniProt H6U1I8) — Vmax (C=CCC1=C(C)[C@@H](O)CC1=O; pH 7.5, 25 °C): 0.112 µmol/min/mg
B11 (protein) — Vmax (COc1cc(-c2oc3cc(O)cc(O)c3c(=O)c2O)ccc1O; pH 7.5, 35 °C, apparent, together with: UDP-glucose): 6.85e+07 µM/min/mg

A few entries again:
UGT3A2 (Homo sapiens, UniProt Q3SY77) — Vmax (O=c1ccn([C@@H]2O[C@H](CO[P@@](=O)(O)O[P@@](=O)(O)O[C@H]3O[C@H](CO)[C@@H](O)[C@H](O)[C@H]3O)[C@@H](O)[C@H]2O)c(=O)[nH]1; pH 7.4, 37 °C, not purified, together with: 1-OH-pyrene 16 µM, MgCl2 10 mM, alamethicin): 0.000997 µmol/min/mg
